# Assay results pooled from the literature.
# Numbered parts are unrelated; each lists some results of a single study.

# Series 1 — technique: protein binding microarray; form: double-stranded DNA, one strand shown; medium: in vitro; concentration: not given; reference: not given; reading: higher = stronger binding
# Target: Histone acetyltransferase KAT6A, winged helix 1, GST fusion (KAT6A, Homo sapiens, UniProt Q92794, residues 1-85)
# Setting: 8-mer, flanks averaged, mean of 2 arrays, mostly near background
# Residues (chain): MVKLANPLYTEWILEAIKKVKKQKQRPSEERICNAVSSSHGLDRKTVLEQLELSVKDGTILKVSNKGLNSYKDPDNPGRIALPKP
Oligonucleotide,E-score
TGAGACCA,-0.225
ACGCTAGG,-0.0519
AGGTAAAC,-0.0422
AAAATCTA,-0.139

# Series 2 — technique: Spec-seq; form: double-stranded DNA, one strand shown; medium: in vitro; concentration: not given; setting: whole probe, mean of replicates; reference: not given; reading: lower = stronger binding; shared flanks, not repeated: GAGTCGTCTCGTCAGCAC … CCGTAGAGCACTCAGGTC
# Target: POU domain, class 5, transcription factor 1, POU domain (Pou5f1, Mus musculus, UniProt P20263, residues 131-289)
# Chain of UniProt P20263 (131-289, looked up): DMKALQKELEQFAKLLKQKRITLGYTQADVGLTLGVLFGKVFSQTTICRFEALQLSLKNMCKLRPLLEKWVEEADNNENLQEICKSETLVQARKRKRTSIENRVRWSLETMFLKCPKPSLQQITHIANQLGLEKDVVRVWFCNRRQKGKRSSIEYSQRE
Oligonucleotide,relative binding energy
GGGTTAAT,0.75 ln ratio
ATGCAGTA,0.242 ln ratio
ATGCTGAT,-0.368 ln ratio
ATATGCAT,-1.7 ln ratio
TACTTAAT,0.379 ln ratio
GCAATAAT,0.163 ln ratio

# Series 3 — technique: protein-binding microarray; form: double-stranded DNA, one strand shown; medium: in vitro; concentration: 2540 nM top; setting: 60-bp whole probe; together with: salmon DNA 0.4 mg/ml; reference: random background probes; reading: higher = stronger binding
# Target: Interferon regulatory factor 3, full length, phosphomimetic (IRF3, Homo sapiens, UniProt Q14653, residues 1-427, S386D/S396D/S398D/S402D/T404D/S405D)
# Chain of UniProt Q14653 (whole entry, unmodified, looked up): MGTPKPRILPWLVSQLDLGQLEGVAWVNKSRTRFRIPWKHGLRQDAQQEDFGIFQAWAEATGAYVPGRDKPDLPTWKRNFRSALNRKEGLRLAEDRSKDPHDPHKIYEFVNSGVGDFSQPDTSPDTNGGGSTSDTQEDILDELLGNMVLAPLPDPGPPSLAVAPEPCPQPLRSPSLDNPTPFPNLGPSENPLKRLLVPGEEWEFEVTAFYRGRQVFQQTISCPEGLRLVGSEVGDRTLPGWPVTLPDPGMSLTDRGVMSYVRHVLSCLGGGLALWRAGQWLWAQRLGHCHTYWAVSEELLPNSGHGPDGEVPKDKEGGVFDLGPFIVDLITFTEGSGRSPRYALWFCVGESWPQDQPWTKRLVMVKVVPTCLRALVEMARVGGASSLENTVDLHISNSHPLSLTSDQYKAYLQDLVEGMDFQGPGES
Oligonucleotide,fitted relative affinity [z-score]
GCCTAGCACTCATTTCTAATTTACTTACTGTGCTAGGTCTTGATTCGCTTGACGCTGCTG,2.65
GCCTAGCACTGAGATTCCAGTTTCGATTAGTGCTAGGTCTTGATTCGCTTGACGCTGCTG,4.52
GCCTAGCACTTAGGTTTCGGTTCCGTTTAGTGCTAGGTCTTGATTCGCTTGACGCTGCTG,10.6
GCCTAGCACTATTATTTGCCTTGCATTTTGTGCTAGGTCTTGATTCGCTTGACGCTGCTG,0.67

# Mixed results
Molecule,target,assay,test system,conditions,scale,quantity,value
"PhoQ, residues 284 288 289 292 302 303 GANMMA","PhoP, residues 12 14 15 18 19 NQAHL (Escherichia coli, UniProt P23836)","Sort-seq, refers to: YFP reporter",E. coli,"PhoQ-PhoP variant library, together with: 10 µM Mg2+","reference: high Mg2+ state, higher = stronger signaling",fold induction,0.933

# Some of these lines once more (series 2):
Oligonucleotide,relative binding energy
ATGCTGAT,-0.368 ln ratio
ATATGCAT,-1.7 ln ratio
